Results of several laboratories.
Values joined by “and” are separate records of one study, mostly repeats; a detail may differ. ± marks the error that the study gave.
POLL: DNA polymerase lambda (POLL, Homo sapiens, UniProt Q9UGP5)
Chain of UniProt Q9UGP5 (whole entry, looked up): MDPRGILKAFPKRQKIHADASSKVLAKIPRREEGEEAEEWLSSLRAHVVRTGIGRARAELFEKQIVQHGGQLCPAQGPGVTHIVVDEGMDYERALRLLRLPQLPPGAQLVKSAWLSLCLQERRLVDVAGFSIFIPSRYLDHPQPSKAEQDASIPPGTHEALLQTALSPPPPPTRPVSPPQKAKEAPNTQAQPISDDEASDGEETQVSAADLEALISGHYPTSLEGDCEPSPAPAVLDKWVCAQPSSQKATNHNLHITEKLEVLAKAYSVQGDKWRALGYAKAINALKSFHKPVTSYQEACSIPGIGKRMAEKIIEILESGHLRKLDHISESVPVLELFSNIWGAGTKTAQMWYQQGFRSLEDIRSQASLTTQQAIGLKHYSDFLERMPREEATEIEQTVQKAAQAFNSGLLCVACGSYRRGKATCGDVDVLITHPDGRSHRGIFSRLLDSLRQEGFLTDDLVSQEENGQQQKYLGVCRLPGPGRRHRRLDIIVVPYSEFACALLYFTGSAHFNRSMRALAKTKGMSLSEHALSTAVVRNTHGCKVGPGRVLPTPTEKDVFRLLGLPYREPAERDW
CA12: Carbonic anhydrase 12 (CA12, Homo sapiens, UniProt O43570)
Chain of UniProt O43570 (whole entry, looked up): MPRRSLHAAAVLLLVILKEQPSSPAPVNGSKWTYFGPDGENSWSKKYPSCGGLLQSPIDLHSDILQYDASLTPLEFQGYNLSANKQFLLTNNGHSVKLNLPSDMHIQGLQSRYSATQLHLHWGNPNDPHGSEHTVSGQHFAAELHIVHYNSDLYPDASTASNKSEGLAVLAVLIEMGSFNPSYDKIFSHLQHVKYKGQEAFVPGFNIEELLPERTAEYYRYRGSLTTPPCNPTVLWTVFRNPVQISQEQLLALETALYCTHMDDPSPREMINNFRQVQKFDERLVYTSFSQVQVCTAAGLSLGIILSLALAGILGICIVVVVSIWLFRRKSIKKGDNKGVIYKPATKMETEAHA
WDR5: WD repeat-containing protein 5 (WDR5, Homo sapiens, UniProt P61964)
GBA1 R534H: Lysosomal acid glucosylceramidase (GBA1, Homo sapiens, UniProt P04062, R534H)
Chain of UniProt P04062 (whole entry, unmodified, looked up): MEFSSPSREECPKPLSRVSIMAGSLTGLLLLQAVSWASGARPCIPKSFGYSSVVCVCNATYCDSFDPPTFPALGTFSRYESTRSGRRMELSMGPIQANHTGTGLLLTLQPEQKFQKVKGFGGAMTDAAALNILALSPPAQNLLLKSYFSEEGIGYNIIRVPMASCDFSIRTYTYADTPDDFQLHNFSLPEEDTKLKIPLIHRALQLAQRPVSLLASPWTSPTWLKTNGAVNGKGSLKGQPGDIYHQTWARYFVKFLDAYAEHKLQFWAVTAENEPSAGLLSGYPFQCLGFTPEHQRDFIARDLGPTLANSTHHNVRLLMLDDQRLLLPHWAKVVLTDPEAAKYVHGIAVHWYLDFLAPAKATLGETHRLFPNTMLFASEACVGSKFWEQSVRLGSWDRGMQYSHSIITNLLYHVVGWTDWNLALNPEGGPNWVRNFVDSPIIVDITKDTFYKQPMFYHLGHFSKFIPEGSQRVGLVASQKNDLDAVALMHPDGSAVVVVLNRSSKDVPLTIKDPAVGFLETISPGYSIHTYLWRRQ
HDAC6: Protein deacetylase HDAC6 (HDAC6, Homo sapiens, UniProt Q9UBN7)
Chain of UniProt Q9UBN7 (whole entry, looked up): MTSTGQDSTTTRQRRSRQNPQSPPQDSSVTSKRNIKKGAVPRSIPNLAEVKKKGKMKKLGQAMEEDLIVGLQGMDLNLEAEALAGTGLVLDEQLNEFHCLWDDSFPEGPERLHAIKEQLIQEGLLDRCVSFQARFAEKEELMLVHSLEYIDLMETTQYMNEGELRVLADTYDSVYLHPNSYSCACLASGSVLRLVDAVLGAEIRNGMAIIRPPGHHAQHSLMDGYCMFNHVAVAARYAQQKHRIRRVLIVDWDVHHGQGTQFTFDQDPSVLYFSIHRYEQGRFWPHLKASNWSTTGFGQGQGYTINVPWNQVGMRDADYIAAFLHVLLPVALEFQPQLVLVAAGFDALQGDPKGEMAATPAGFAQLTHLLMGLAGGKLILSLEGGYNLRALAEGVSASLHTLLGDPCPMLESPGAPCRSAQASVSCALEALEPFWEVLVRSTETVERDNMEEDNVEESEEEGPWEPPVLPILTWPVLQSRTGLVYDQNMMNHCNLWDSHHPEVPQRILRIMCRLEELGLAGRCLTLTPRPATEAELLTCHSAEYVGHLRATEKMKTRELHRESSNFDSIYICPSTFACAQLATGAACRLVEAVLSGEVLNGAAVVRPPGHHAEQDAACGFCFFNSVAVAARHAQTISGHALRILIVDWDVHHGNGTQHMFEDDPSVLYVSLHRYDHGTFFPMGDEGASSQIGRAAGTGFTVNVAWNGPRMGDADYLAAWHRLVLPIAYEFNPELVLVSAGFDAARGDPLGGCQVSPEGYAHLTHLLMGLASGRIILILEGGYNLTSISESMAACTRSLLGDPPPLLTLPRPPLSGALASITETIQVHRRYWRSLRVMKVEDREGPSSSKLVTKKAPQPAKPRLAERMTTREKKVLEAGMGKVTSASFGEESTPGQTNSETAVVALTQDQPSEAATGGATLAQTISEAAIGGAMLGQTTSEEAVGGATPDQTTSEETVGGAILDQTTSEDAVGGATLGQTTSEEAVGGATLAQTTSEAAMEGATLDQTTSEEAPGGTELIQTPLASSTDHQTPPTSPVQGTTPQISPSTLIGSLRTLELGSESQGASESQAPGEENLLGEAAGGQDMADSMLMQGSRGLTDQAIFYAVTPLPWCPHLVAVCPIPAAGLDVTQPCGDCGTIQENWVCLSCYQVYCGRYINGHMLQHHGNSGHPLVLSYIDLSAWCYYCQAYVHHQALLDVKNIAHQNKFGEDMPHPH
GBA1: Lysosomal acid glucosylceramidase (GBA1, Homo sapiens, UniProt P04062)
PNMT: Phenylethanolamine N-methyltransferase (PNMT, Homo sapiens, UniProt P11086)
Chain of UniProt P11086 (whole entry, looked up): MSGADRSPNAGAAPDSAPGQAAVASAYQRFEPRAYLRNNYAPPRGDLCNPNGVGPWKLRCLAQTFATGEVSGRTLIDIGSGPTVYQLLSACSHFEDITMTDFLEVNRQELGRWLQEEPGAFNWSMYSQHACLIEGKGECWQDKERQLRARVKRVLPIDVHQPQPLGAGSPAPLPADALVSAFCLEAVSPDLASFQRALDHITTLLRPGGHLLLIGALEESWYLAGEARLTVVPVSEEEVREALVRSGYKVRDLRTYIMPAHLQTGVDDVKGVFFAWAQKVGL
Chain of UniProt P07478 (whole entry, looked up): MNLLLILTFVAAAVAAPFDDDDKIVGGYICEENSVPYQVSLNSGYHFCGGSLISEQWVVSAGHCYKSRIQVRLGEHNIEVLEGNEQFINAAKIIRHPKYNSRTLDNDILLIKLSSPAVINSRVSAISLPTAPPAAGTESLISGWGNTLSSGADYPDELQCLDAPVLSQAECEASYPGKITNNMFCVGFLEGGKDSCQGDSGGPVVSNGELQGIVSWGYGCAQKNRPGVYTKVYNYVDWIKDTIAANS
Chain of UniProt P28223 (whole entry, looked up): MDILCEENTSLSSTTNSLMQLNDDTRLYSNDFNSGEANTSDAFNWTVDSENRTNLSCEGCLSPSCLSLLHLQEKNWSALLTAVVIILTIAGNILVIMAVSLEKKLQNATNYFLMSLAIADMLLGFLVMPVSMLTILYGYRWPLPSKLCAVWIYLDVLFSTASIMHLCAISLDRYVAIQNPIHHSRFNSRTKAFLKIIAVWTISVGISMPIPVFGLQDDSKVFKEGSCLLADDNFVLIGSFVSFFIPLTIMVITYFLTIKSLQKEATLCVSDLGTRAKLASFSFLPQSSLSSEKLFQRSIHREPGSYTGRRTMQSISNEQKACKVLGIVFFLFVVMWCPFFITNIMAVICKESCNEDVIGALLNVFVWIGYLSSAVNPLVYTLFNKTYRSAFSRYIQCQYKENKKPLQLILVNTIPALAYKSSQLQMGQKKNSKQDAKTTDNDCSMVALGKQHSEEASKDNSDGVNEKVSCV
Chain of UniProt P28221 (whole entry, looked up): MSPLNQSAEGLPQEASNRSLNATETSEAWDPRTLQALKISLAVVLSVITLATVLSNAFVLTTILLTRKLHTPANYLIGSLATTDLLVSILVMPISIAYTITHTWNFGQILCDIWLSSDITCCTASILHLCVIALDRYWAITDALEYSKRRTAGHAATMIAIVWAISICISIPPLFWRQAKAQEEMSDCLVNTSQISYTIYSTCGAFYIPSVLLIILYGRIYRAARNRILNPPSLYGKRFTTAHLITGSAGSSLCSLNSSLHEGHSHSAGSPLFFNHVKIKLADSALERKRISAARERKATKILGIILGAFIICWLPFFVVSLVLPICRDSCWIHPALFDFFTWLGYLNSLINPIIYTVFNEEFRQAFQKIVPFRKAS
Chain of UniProt P43220 (whole entry, looked up): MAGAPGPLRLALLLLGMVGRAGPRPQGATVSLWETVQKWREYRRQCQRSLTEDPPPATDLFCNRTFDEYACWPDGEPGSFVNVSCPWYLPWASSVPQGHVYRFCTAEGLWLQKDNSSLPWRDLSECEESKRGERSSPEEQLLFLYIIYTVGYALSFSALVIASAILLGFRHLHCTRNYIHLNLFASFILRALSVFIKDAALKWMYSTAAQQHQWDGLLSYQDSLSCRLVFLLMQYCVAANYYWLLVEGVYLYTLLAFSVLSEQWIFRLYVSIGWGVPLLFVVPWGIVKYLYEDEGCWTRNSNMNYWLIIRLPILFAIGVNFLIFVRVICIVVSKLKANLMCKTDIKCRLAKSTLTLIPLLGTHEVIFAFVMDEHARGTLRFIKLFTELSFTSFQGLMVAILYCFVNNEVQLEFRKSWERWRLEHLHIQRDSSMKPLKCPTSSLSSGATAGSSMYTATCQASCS
Chain of UniProt P00797 (whole entry, looked up): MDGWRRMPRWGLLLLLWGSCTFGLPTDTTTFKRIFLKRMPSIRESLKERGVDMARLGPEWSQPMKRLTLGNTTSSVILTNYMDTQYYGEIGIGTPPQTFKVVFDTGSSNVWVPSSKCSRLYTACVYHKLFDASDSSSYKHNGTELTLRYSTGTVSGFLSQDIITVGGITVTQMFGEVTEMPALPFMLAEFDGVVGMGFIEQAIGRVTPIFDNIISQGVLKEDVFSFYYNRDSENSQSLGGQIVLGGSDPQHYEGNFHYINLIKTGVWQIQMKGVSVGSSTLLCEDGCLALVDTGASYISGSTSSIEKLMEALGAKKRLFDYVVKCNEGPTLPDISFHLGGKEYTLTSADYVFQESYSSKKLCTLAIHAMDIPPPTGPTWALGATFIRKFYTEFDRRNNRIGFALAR

O=C(OCCCCOP(=O)(O)OP(=O)(O)OP(=O)(O)O)c1ccccc1
Ki (POLL; DNA polymerase activity, inhibitor; with: 1 mM Mn2+, poly(dA)/oligo(dT)): 1.5 µM

N#C[Se]CCCCCCOc1ccc2c(-c3ccccc3)cc(=O)oc2c1
Ki (CA12; enzyme activity, inhibitor, stopped-flow): 0.164 µM

CC[C@@H]1NC(=O)[C@H](CCCNC(=N)N)NC(=O)[C@H](NC(=O)C(C)C)CCNC(=O)c2cc(F)c(c(F)c2)N=Nc2c(F)cc(cc2F)C(=O)NCCNC1=O
Ki (WDR5; binding, inhibitor, competitive fluorescence polarization; cis isomer, 520 nm photostationary state): 0.459 µM

OC[C@H]1[C@@H](O)[C@H](O)[C@@H](O)CN1CCCCCOCc1ccc(-c2ccccc2)c(C(F)(F)F)c1
IC50 (GBA1 R534H; inhibitor, 4MU-β-D-glucopyranoside; with: 4MU-β-D-glucopyranoside): 6 µM

CCCCCCC1CCCC(=O)O1 (stereo not drawn)
Ki (CA12; enzyme activity, inhibitor, stopped-flow): 6.2 µM

Cn1ccc2c(N3CCN(CCCCOc4ccc5c(c4)NC(=O)CC5)CC3)cccc21
Ki (HTR1D (Homo sapiens, UniProt P28221); ligand displacement, radioligand): 0.643 µM

CN(C)CCCSc1nc(-c2ccccc2)nc2c1CCC2
relative translation (Trypanosoma cruzi; reporter mRNA translation, inhibitor, item: capped polyadenylated Renilla luciferase mRNA; cell-free extract; concentration not given; reference: control RNA): 107%

O=C(NO)c1cccc(OS(=O)(=O)Oc2ccccc2)c1
Ki (HDAC6; enzyme activity, inhibitor, fluorescence): 0.059 µM

CC[C@@H]1NC(=O)[C@H](CCCNC(=N)N)NC(=O)[C@H](NC(=O)C(C)C)CNC(=O)c2cc(F)c(c(F)c2)N=Nc2c(F)cc(cc2F)C(=O)NCCNC1=O
Ki (WDR5; binding, inhibitor, competitive fluorescence polarization; trans isomer, 405 nm photostationary state): 1.1 µM

O=[N+]([O-])c1ccc(O[C@@H]2C=C(CO)[C@@H](O)[C@H](O)[C@H]2O)c([N+](=O)[O-])c1
Ki (GBA1; mixed-type inhibitor; with: resorufin β-glucoside): 0.16 ± 0.03 µM

Nc1ncnc2c1ncn2[C@@H]1O[C@H](CNCCCc2cncc3ccccc23)[C@@H](O)[C@H]1O
Ki (PNMT; inhibitor, SAH deaminase coupled): no inhibition

O=C(NCCCOP(=O)(O)OP(=O)(O)OP(=O)(O)O)OCC1c2ccccc2-c2ccccc21
Ki (POLL; enzyme activity, inhibitor, radiometric): 2.2 µM

CC[C@@H]1NC(=O)[C@H](CCCNC(=N)N)NC(=O)[C@H](NC(=O)C(C)C)CCCCNC(=O)c2cc(F)c(c(F)c2)N=Nc2c(F)cc(cc2F)C(=O)NCCNC1=O
Ki (WDR5; binding, inhibitor, competitive fluorescence polarization; cis isomer, 520 nm photostationary state): 2.9 µM

COC(=O)[C@@]1(C)C=C(C(=O)Nc2cccc(C(=O)Nc3ccc(Nc4nccc(-c5cccnc5)n4)c(C)c3)c2)C(=O)CC1
Ki (MAPK8 (Homo sapiens, UniProt P45983); SPR two-step binding model; wild-type protein surface): 0.0021 µM

Cc1nc(-c2c[nH]c(C(=O)Nc3ncccc3O)c2)cs1
Ki (Trypsin-2 (Homo sapiens, UniProt P07478); mixed inhibitor, Z-GPR-pNA substrate): 189 µM and 181 µM

O=C(NCCCCOP(=O)(O)OP(=O)(O)OP(=O)(O)O)OCC1c2ccccc2-c2ccccc21
Ki (POLL; enzyme activity, inhibitor, radiometric): 2.1 µM

O=C(NO)c1cc(F)cc(OS(=O)(=O)Oc2ccc(Br)cc2)c1
Ki (HDAC6; enzyme activity, inhibitor, fluorescence): 0.1 µM

CN1C=C/C(=C\c2cc[n+](C)c3ccccc23)c2ccccc21
relative translation (Trypanosoma cruzi; reporter mRNA translation, inhibitor, item: capped polyadenylated Renilla luciferase mRNA; cell-free extract; concentration not given; reference: control RNA): 92.4%

O=C1CCCCO1
Ki (CA12; enzyme activity, inhibitor, stopped-flow): 8.2 µM

CC1(C)OCCc2cc(C(=O)N3CCC(c4nc(-c5ccccc5)n[nH]4)CC3)ccc21
Ki (FSP1; NADH oxidase activity, inhibitor; pH 7.2, with: NADH varied, no coenzyme Q1): 3.56 ± 0.82 µM

CC(C)(C)c1cccc(OS(=O)(=O)Oc2cc(F)cc(C(=O)NO)c2)c1
Ki (HDAC6; enzyme activity, inhibitor, fluorescence): 0.309 µM

CCC1(CC)CC(=O)N(C2c3cc(C(=O)NC4c5ccccc5CC4O)ccc3OC2(C)COC)C(=N)N1 (stereo not drawn)
Ki (Renin (REN, Homo sapiens, UniProt P00797); enzyme activity, inhibitor): 0.562 µM

CCCCCCCCCCCC(=O)NC1CCOC1=O (stereo not drawn)
Ki (CA12; enzyme activity, inhibitor, stopped-flow): 12.9 µM

Nc1ncnc2c1ncn2C1OC(CN(CCCC2CNCc3c2ccc(Cl)c3Cl)CCC(N)C(=O)O)C(O)C1O (mixture of isomers)
Ki (PNMT; inhibitor, radiometric; 20 min, 30 °C, diastereomeric mixture, with: [3H]SAM): 0.0163 ± 0.0015 µM

O=C(NO)c1cncc(OS(=O)(=O)Oc2ccc(Oc3ccccc3)cc2)c1
Ki (HDAC6; enzyme activity, inhibitor, fluorescence): 0.268 µM

CCc1c(Cl)cccc1N1CCN(C[C@H](F)CCNC(=O)c2cc3ccccc3[nH]2)CC1
Ki (HTR2A (Homo sapiens, UniProt P28223); ligand displacement, radioligand; cell membranes): 0.709 µM

N#Cc1cccc(-c2ccc(COCCCCCN3C[C@H](O)[C@@H](O)[C@H](O)[C@H]3CO)cc2)c1
IC50 (GBA1 R534H; inhibitor, 4MU-β-D-glucopyranoside; with: 4MU-β-D-glucopyranoside): 0.7 µM

Cc1cc(=O)oc2cc(OCCCCCCSC#N)ccc12
Ki (CA12; enzyme activity, inhibitor, stopped-flow): 0.0631 µM

CC(C)(C)c1ccccc1OS(=O)(=O)Oc1cccc(C(=O)NO)c1
Ki (HDAC6; enzyme activity, inhibitor, fluorescence): 0.409 µM

O=C(NCCOP(=O)(O)OP(=O)(O)OP(=O)(O)O)OCC1c2ccccc2-c2ccccc21
Ki (POLL; DNA polymerase activity, inhibitor; with: 1 mM Mg2+, poly(dA)/oligo(dT)): 5.6 µM

O[C@@H]1[C@@H](O)[C@H](F)C=C[C@H]1O
Ki (GBA1; covalent inhibitor, continuous progress curves; pH 5.2, 25 °C): 3400 µM

O=C(NO)c1cccc(OS(=O)(=O)Oc2cccc([N+](=O)[O-])c2)c1
Ki (HDAC6; enzyme activity, inhibitor, fluorescence): 0.032 µM

COc1cc(C2C(NC(=O)c3ccc(NC(=O)OC(C)(C)C)cc3)(C(=O)O)C(c3ccc(OC(=O)c4cccs4)c(OC)c3)C2(NC(=O)c2ccc(NC(=O)OC(C)(C)C)cc2)C(=O)O)ccc1OC(=O)c1cccs1 (stereo not drawn)
Ki (GLP1R (Homo sapiens, UniProt P43220); ligand displacement in cells, radioligand): 3.16 µM

Some of these lines once more:
CC1(C)OCCc2cc(C(=O)N3CCC(c4nc(-c5ccccc5)n[nH]4)CC3)ccc21
Ki (FSP1; NADH oxidase activity, inhibitor; pH 7.2, with: NADH varied, no coenzyme Q1): 3.56 ± 0.82 µM

CC(C)(C)c1cccc(OS(=O)(=O)Oc2cc(F)cc(C(=O)NO)c2)c1
Ki (HDAC6; enzyme activity, inhibitor, fluorescence): 0.309 µM

CCC1(CC)CC(=O)N(C2c3cc(C(=O)NC4c5ccccc5CC4O)ccc3OC2(C)COC)C(=N)N1 (stereo not drawn)
Ki (Renin (REN, Homo sapiens, UniProt P00797); enzyme activity, inhibitor): 0.562 µM
